Assay results from different studies.
Every numbered part comes from another study and shows a few of its results, in no order. Several values in a cell are separate wells, animals, samples, runs or records.
UniProt Q9BVS4, sequence (whole entry, looked up): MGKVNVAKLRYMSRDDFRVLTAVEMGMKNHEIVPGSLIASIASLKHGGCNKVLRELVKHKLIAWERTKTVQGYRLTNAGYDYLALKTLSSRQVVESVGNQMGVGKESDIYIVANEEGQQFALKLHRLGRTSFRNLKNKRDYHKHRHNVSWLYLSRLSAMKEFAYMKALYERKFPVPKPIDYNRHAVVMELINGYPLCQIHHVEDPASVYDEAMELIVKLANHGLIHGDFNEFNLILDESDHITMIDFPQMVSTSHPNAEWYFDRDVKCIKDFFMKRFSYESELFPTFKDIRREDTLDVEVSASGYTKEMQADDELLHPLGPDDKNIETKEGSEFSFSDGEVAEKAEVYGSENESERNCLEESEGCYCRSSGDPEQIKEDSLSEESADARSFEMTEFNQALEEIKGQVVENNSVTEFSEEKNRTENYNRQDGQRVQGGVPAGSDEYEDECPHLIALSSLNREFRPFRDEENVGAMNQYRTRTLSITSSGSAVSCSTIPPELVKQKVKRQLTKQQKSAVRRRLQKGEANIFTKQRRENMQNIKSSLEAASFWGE

Study 1
SMILES: CC[C@@]1(c2cccc(-c3c(F)cncc3OC)c2)C2=C(Nc3n[nH]cc31)[C@H](F)C(C)(C)CC2=O (single isomer, unassigned)
Tested at: 1 µM
The remaining binding was 100% (Dual specificity testis-specific protein kinase 1 (TESK1, Homo sapiens, UniProt Q15569); kinase binding, KINOMEscan; reference: DMSO control).
The remaining binding was 100% (Serine/threonine-protein kinase Sgk2 (SGK2, Homo sapiens, UniProt Q9HBY8); binding, competition with immobilised ligand).
Non-receptor tyrosine-protein kinase TNK1 (TNK1, Homo sapiens, UniProt Q13470); kinase binding, KINOMEscan; reference: DMSO control — remaining binding: 100%.
For Serine/threonine-protein kinase 17A (STK17A, Homo sapiens, UniProt Q9UEE5); binding, competition with immobilised ligand: remaining binding read 81%.
For Myotonin-protein kinase (DMPK, Homo sapiens, UniProt Q09013); binding, competition with immobilised ligand: remaining binding read 77%.
The remaining binding was 81% (Tyrosine-protein kinase ABL1, non-phosphorylated (ABL1, Homo sapiens, UniProt P00519, F317I); binding, competition with immobilised ligand).
It gave 80% for remaining binding (Serine/threonine-protein kinase RIO2 (RIOK2, Homo sapiens, UniProt Q9BVS4); binding, competition with immobilised ligand).
Phosphatidylinositol 4,5-bisphosphate 3-kinase catalytic subunit alpha isoform (PIK3CA, Homo sapiens, UniProt P42336, H1047Y); binding, competition with immobilised ligand — remaining binding: 100%.
For Homeodomain-interacting protein kinase 3 (HIPK3, Homo sapiens, UniProt Q9H422); kinase binding, KINOMEscan; reference: DMSO control: remaining binding read 66%.
The remaining binding was 100% (Dual specificity tyrosine-phosphorylation-regulated kinase 1B (DYRK1B, Homo sapiens, UniProt Q9Y463); binding, competition with immobilised ligand).
It gave 75% for remaining binding (Tyrosine-protein kinase ZAP-70 (ZAP70, Homo sapiens, UniProt P43403); binding, competition with immobilised ligand).
For 1-phosphatidylinositol 3-phosphate 5-kinase (PIKFYVE, Homo sapiens, UniProt Q9Y2I7); binding, competition with immobilised ligand: remaining binding read 81%.
For Serine/threonine-protein kinase RIO1 (RIOK1, Homo sapiens, UniProt Q9BRS2); binding, competition with immobilised ligand: remaining binding read 59%.

Study 2
SMILES: C=C(CN)COc1cccc(Cn2c(=S)[nH]c(=O)c3[nH]cnc32)c1
AOC3: Amine oxidase [copper-containing] 3 (AOC3, Homo sapiens, UniProt Q16853)
UniProt Q16853, sequence (whole entry, looked up): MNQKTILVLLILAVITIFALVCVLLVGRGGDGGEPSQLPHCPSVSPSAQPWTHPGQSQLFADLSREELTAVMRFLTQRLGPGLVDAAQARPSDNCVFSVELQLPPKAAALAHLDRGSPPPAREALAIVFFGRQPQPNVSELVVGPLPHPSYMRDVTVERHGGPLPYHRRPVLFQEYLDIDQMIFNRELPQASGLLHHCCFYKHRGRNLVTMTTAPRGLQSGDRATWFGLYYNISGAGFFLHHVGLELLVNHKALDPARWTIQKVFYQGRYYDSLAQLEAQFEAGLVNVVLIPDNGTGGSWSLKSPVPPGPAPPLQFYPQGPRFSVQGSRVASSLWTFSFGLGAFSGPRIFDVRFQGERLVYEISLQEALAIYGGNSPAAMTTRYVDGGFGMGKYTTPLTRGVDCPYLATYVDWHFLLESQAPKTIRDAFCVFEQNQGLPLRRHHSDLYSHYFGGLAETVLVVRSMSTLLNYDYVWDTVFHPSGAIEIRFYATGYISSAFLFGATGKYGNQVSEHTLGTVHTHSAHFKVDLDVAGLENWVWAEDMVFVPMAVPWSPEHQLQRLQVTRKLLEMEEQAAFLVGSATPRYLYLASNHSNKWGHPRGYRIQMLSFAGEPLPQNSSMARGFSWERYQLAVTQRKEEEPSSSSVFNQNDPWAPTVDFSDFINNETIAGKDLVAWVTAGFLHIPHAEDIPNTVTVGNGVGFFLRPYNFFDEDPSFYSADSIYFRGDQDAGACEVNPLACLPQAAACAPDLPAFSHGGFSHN
MPO: Myeloperoxidase (MPO, Homo sapiens, UniProt P05164)
UniProt P05164, sequence (whole entry, looked up): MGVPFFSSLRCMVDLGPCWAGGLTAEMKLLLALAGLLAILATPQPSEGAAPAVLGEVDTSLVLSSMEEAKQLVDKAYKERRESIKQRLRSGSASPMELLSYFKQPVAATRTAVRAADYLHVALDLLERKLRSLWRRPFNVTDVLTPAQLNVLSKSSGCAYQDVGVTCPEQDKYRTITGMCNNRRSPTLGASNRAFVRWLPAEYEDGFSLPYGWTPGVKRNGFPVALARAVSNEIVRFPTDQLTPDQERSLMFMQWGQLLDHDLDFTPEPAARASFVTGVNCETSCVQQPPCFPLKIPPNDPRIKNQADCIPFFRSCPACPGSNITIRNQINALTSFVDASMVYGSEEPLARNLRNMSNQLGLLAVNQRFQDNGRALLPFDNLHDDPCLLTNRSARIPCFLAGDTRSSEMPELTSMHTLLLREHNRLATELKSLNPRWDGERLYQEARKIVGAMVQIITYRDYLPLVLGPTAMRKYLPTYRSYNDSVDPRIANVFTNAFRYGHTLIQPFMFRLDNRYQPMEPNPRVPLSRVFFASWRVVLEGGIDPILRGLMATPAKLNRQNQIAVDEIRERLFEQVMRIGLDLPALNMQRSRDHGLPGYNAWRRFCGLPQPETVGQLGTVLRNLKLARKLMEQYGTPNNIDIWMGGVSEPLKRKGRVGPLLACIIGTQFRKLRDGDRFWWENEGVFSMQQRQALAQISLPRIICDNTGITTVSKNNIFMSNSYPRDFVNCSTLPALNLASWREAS
For AOC3; H2O2 production, inhibitor, Amplex Red; 3.333 µM: inhibition read 87.1 % Inhibition and 64.3 % Inhibition.
AOC3; enzyme activity, Amplex Red H2O2 production; 0.0005 µM, mean value — inhibition: 2.76%.
For AOC3; H2O2 production, inhibitor, Amplex Red; 0.0005 µM: inhibition read 9.6 % Inhibition and -4.07 % Inhibition.
It gave 97.2% for inhibition (AOC3; enzyme activity, Amplex Red H2O2 production; 30 µM).
MPO; enzyme activity, inhibitor, fluorescence; 37 nM — inhibition: 66.4%.
The inhibition was 93.5% (AOC3; enzyme activity, Amplex Red H2O2 production; 10 µM).
The inhibition was 9.11% (MPO; enzyme activity, inhibitor, fluorescence; 1.4 nM).
The inhibition was 19.5% and 28.4% (MPO; enzyme activity; 0.0046 µM).
MPO; enzyme activity, inhibitor, fluorescence; 3 µM — inhibition: 99.6%.
The inhibition was 101% (MPO; enzyme activity, inhibitor, fluorescence; 30 µM).
It gave 36 % Inhibition for inhibition (AOC3; H2O2 production, inhibitor, Amplex Red; 1.111 µM).
The inhibition was 99.9% (MPO; enzyme activity; 10 µM).
For AOC3; enzyme activity, Amplex Red H2O2 production; 0.0137 µM, mean value: inhibition read 9.03%.
MPO; enzyme activity; 3.333 µM — inhibition: 100%.
The inhibition was 16.6 % Inhibition (AOC3; H2O2 production, inhibitor, Amplex Red; 0.3704 µM).

Study 3
Target: Cyclin-dependent kinase 12, with cyclin K (CDK12, Homo sapiens, UniProt Q9NYV4)
UniProt Q9NYV4, sequence (whole entry, looked up): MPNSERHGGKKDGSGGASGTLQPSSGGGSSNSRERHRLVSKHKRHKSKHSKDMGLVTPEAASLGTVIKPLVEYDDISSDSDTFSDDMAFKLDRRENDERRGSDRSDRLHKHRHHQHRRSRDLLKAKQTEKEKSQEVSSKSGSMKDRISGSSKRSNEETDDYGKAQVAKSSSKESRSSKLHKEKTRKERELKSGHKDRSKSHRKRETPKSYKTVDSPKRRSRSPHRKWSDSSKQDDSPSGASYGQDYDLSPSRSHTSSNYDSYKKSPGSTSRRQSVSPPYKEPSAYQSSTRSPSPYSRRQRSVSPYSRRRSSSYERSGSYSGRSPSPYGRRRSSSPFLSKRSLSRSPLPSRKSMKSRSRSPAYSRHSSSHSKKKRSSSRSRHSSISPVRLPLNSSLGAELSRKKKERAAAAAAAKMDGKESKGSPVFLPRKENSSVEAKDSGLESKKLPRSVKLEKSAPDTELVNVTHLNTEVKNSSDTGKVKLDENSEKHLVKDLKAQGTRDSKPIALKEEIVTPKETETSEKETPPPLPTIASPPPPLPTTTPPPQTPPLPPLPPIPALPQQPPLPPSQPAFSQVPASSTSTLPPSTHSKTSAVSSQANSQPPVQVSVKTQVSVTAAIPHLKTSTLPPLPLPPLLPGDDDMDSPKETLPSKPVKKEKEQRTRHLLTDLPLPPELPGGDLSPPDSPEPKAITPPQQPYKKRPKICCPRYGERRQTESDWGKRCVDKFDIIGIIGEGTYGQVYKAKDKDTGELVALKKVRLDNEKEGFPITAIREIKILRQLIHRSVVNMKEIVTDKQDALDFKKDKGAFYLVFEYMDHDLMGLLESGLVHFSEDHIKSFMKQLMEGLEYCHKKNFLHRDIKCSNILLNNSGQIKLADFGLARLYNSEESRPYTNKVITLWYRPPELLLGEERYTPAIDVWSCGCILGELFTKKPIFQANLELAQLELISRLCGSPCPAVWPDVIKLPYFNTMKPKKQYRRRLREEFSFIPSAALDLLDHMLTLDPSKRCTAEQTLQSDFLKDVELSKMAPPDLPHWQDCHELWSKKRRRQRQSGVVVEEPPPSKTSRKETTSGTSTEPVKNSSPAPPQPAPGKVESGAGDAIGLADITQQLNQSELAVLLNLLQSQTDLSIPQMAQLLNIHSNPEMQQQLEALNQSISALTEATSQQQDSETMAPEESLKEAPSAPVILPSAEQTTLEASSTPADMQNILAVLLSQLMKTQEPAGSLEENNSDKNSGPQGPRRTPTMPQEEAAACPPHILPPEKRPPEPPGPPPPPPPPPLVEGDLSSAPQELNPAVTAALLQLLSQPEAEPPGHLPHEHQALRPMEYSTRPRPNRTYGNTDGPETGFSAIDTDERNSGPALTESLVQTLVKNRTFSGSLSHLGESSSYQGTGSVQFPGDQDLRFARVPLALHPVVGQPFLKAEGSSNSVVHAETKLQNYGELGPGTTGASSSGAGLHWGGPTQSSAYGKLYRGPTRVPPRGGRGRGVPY
Effect on: kinase activity
Mode: inhibitor
Method: ADP-Glo
Tested at: 0.0741 µM
`CCn1cnc2c(NCc3nc4cc(Cl)c(Cl)cc4[nH]3)nc(N3CCC(NC(C)=O)CC3)nc21` has an inhibition of 28%.
`CCn1cnc2c(NCc3nc4cc(Cl)c(Cl)cc4[nH]3)nc(N3CCn4ncnc4C3)nc21` gave an inhibition of 65.1%.
With `CCn1cnc2c(NCc3nc4cc(Cl)c(Cl)cc4[nH]3)nc(N3CCN(S(C)(=O)=O)CC3)nc21` the inhibition was 31.7%.
`CCn1cnc2c(NCc3nc4cc(Cl)c(Cl)cc4[nH]3)nc(N3CCN(Cc4ccncc4)CC3)nc21` has an inhibition of -2.3%.
`CCn1cnc2c(NCc3nc4cc(Cl)c(Cl)cc4[nH]3)nc(N3CCN(C(C)=O)CC3)nc21` gave an inhibition of 46.2%.
For `CCn1cnc2c(NCc3nc4cc(Cl)c(Cl)cc4[nH]3)nc(N3CCN(C(=O)c4ccccc4)CC3)nc21`, the inhibition was 48.6%.
For `CCn1cnc2c(NCc3nc4cc(Cl)c(Cl)cc4[nH]3)nc(N3CCN(C(=O)CNC(C)=O)CC3)nc21`, the inhibition was 41%.
The inhibition of `CCn1cnc2c(NCc3nc4cc(Cl)c(Cl)cc4[nH]3)nc(N3CCN(C(=O)c4ccncc4)CC3)nc21` is reported as 49.5%.
The inhibition of `CC(=O)N1CCN(c2nc(NCc3nc4cc(Cl)c(Cl)cc4[nH]3)c3ncn(-c4cnn(C)c4)c3n2)CC1` is reported as 29.2%.
The inhibition of `CC(=O)N1CCN(c2nc(NCc3nc4cc(Cl)c(Cl)cc4[nH]3)c3ncn(C)c3n2)CC1` is reported as 5.5%.

Study 4
Structure (SMILES): C[C@@H]1CN(c2ccc(-c3cc(C(=O)NCCOCCOCCOCCOCCNC(=O)Cn4cc(-c5[nH]cc(C(=O)N[C@@H](CC(N)=O)c6ccc(F)c(Cl)c6)c5-c5ccc(Cl)cc5F)cn4)ccc3F)cc2NC(=O)c2c[nH]c(=O)cc2C(F)(F)F)C[C@H](C)N1C
Effect on: thermal unfolding
Method: differential scanning fluorimetry
Tested at: 5.5 µM
Reading: higher = more unfolded
DCAF1: DDB1- and CUL4-associated factor 1 (DCAF1, Homo sapiens, UniProt Q9Y4B6)
UniProt Q9Y4B6, sequence (whole entry, looked up): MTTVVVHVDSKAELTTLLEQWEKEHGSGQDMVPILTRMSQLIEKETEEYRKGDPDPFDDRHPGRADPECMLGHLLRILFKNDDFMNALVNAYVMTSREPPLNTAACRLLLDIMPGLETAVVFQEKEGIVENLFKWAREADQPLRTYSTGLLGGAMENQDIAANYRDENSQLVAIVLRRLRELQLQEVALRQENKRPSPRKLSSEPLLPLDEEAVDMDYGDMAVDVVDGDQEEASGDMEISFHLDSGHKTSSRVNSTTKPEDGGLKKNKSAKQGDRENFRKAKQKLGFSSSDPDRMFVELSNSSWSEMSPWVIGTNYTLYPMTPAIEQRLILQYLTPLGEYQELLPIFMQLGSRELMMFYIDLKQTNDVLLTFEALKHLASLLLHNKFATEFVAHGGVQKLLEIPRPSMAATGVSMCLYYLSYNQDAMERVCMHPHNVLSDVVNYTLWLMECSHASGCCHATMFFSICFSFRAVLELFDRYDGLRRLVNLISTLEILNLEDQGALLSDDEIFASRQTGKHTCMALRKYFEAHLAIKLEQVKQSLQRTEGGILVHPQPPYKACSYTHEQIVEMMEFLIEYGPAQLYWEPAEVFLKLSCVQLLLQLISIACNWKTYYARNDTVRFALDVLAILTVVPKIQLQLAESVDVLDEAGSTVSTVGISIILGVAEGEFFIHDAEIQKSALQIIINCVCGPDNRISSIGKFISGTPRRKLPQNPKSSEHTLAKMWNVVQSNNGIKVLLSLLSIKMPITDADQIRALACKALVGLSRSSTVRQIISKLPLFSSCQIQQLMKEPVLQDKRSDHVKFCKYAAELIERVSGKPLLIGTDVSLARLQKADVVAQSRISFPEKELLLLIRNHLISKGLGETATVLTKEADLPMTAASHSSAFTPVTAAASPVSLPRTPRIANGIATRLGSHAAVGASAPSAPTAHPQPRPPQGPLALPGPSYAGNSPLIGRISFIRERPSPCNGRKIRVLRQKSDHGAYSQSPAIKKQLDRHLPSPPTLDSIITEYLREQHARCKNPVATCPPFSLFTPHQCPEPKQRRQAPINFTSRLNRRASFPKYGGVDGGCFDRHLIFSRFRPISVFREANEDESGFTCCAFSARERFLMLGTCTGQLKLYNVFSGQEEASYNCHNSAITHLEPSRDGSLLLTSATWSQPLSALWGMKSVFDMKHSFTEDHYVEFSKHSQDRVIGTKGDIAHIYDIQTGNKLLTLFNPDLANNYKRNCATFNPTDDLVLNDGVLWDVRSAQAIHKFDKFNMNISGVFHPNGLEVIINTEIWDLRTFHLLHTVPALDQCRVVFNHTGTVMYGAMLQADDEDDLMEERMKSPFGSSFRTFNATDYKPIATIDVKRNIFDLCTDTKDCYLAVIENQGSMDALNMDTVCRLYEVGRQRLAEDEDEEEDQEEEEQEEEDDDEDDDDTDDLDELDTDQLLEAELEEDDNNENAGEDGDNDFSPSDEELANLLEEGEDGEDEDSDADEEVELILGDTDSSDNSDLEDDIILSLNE
WDR5: WD repeat-containing protein 5 (WDR5, Homo sapiens, UniProt P61964)
The “SYPRO Orange fluorescence” was 48600 a.u. (DCAF1; 62.21 °C).
DCAF1; 83.81 °C — “SYPRO Orange fluorescence”: 40900 a.u.
The “SYPRO Orange fluorescence” was 14200 a.u. (WDR5; 36.2 °C).
DCAF1; 89.21 °C — “SYPRO Orange fluorescence”: 35900 a.u.
It gave 14200 a.u. for “SYPRO Orange fluorescence” (DCAF1; 49.4 °C).
The “SYPRO Orange fluorescence” was 14300 a.u. (WDR5; 35.2 °C).
The “SYPRO Orange fluorescence” was 50100 a.u. (DCAF1; 62.61 °C).
It gave 7950 a.u. for “SYPRO Orange fluorescence” (WDR5; 64.41 °C).
For DCAF1; 77.61 °C: “SYPRO Orange fluorescence” read 46400 a.u.
For DCAF1; 49 °C: “SYPRO Orange fluorescence” read 13900 a.u.
It gave 14200 a.u. for “SYPRO Orange fluorescence” (WDR5; 41.6 °C).

Excerpt of the above (study 1):
The remaining binding was 100% (Serine/threonine-protein kinase Sgk2 (SGK2, Homo sapiens, UniProt Q9HBY8); binding, competition with immobilised ligand).
For Myotonin-protein kinase (DMPK, Homo sapiens, UniProt Q09013); binding, competition with immobilised ligand: remaining binding read 77%.
For Serine/threonine-protein kinase RIO1 (RIOK1, Homo sapiens, UniProt Q9BRS2); binding, competition with immobilised ligand: remaining binding read 59%.
Phosphatidylinositol 4,5-bisphosphate 3-kinase catalytic subunit alpha isoform (PIK3CA, Homo sapiens, UniProt P42336, H1047Y); binding, competition with immobilised ligand — remaining binding: 100%.
The remaining binding was 100% (Dual specificity tyrosine-phosphorylation-regulated kinase 1B (DYRK1B, Homo sapiens, UniProt Q9Y463); binding, competition with immobilised ligand).
It gave 80% for remaining binding (Serine/threonine-protein kinase RIO2 (RIOK2, Homo sapiens, UniProt Q9BVS4); binding, competition with immobilised ligand).
For Homeodomain-interacting protein kinase 3 (HIPK3, Homo sapiens, UniProt Q9H422); kinase binding, KINOMEscan; reference: DMSO control: remaining binding read 66%.
For Serine/threonine-protein kinase 17A (STK17A, Homo sapiens, UniProt Q9UEE5); binding, competition with immobilised ligand: remaining binding read 81%.
